Results collected from several papers.
Each line is one published result; not all experiments were run side by side.
Chain of UniProt P37136 (whole entry, looked up): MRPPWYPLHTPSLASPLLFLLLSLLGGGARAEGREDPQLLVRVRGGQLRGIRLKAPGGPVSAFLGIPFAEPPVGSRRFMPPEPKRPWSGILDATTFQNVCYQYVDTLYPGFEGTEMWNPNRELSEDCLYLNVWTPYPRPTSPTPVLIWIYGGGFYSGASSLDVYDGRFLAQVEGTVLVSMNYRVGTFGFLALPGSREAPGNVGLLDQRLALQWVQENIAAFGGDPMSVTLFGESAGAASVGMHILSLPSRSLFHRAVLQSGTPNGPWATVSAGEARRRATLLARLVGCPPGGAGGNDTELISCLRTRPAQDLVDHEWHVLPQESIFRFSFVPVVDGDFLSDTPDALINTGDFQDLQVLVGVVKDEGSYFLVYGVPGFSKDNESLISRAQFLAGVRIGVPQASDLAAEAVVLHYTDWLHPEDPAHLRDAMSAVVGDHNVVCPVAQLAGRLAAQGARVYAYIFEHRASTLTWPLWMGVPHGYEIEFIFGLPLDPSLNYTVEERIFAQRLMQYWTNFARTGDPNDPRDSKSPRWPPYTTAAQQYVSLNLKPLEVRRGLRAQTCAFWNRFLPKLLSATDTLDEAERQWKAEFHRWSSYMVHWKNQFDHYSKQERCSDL

For `deucravacitinib`, “subjects with headache” read 16.7% (human volunteers; dose not given, single ascending dose).
For `maraviroc`, the Cavg was 246 ng/mL (white CYP3A5 poor metabolizers, plasma; 300 mg twice daily).
For `phoxim-oxon`, the IC50 was 21 nM (Acetylcholinesterase (Ache, Rattus norvegicus, UniProt P37136); enzyme activity, inhibitor, Ellman; rat, postnatal day 12, lung homogenate; 15 min, 37 °C).
For `chicoric acid`, “Papp apical to basolateral” read “increased” (IPEC-J2 monolayer; with: thapsigargin 10 µM; baseline: without inhibitor).
`semaglutide` — result for “participants with adverse events”: 3.1% (refers to: drug withdrawn; human, safety analysis set; concentration not given, 32 weeks, run-in).

For quick reference, copied from above:
For `phoxim-oxon`, the IC50 was 21 nM (Acetylcholinesterase (Ache, Rattus norvegicus, UniProt P37136); enzyme activity, inhibitor, Ellman; rat, postnatal day 12, lung homogenate; 15 min, 37 °C).
